{"data": "Experimental data pooled from the literature", "note": "Each numbered part is a random draw from the data of one study; scales do not carry over between parts. Positions count from the first letter of the parent shown."}
{"data": "Set 1", "target": "Histone acetyltransferase KAT6A, both winged helices, GST fusion (KAT6A, Homo sapiens, UniProt Q92794, residues 1-181)", "method": "protein binding microarray", "molecule type": "double-stranded DNA, one strand shown", "matrix": "in vitro", "concentration": "not given", "setting": "8-mer, flanks averaged, mean of 2 arrays, mostly near background", "reference": "not given", "direction": "higher = stronger binding", "Target sequence (chain)": "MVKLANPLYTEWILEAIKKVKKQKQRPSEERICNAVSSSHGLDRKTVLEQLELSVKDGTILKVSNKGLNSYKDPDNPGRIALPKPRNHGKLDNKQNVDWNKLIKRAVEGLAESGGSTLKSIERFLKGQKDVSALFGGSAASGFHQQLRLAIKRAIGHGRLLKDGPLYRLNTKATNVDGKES"}
{"Strand": "CTTCGTGC", "E-score": -0.0215}
{"Strand": "ACCGAAGA", "E-score": -0.103}
{"Strand": "TATCTGAA", "E-score": -0.0866}
{"Strand": "GCCTAACA", "E-score": -0.13}
{"Strand": "GTGATAAC", "E-score": -0.0152}
{"Strand": "ATCGATCC", "E-score": 0.045}
{"Strand": "AGTTACTA", "E-score": -0.133}
{"Strand": "ACAGGGTA", "E-score": -0.156}
{"data": "Set 2", "target": "RING finger protein unkempt homolog, zinc fingers 1-6, GST-SBP tag (UNK, Homo sapiens, UniProt Q9C0B0, residues 30-357)", "method": "RNA Bind-n-Seq", "molecule type": "RNA", "matrix": "in vitro", "concentration": "not given", "setting": "RNA with constant flanks, ends assumed", "reference": "input RNA pool", "direction": "higher = stronger binding", "shared flanks, not repeated": "GGGAGUUCUACAGUCCGACGAUC … CAACAGAGGAUUGAGCAUCA", "Construct (chain)": "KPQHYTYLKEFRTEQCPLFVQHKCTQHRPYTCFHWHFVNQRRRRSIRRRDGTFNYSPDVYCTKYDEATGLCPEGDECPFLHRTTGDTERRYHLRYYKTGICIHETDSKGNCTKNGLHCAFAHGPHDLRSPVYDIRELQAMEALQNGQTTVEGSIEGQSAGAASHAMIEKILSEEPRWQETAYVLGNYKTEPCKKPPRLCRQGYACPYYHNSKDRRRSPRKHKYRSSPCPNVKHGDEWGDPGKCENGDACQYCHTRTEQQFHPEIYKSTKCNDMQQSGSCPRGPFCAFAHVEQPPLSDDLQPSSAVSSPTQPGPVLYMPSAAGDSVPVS"}
{"Strand": "GAAAGAGUAGAUGGGCCCAAGCACAGCCUCCUCAUGCGUUGAAAUAAUGCCAAAUGCUCUUCCGUAAAAUGCUGAAUUACGGUGUUUUUUUUUUUUUUGCAUCAUUUGUCUUUAAUAUUC", "bound/input enrichment": "0.323 ratio"}
{"Strand": "CUUCUGUUUCAUACAAUAUCCUUUCAUACUUCUGCUAAUCUGCUAAUGUAAUUUGGAAGACCGCUGUCACCAGGAUAACCUGUAAUGGGCAAGGAGCCACAGAGAAGAAAACAUUUCUUU", "bound/input enrichment": "0.113 ratio"}
{"Strand": "CCGAAAGUAGUGAAUGAAAUAAACAUUGAAGAUUUGUGUCUUACUAAAGCAGCUUAUUGCCGGUGUUGGCGUUCUAAAACGUUUCCUGCCUGCGAUGGUUCACAUAAUAAACACAAUGAA", "bound/input enrichment": "4.96 ratio"}
{"Strand": "AACGCUUCCGUGAGACUUGACAAUAGCUCUGGUGCAAGUGUGGUAGCUAUCGACAACAAAACCGAGCAAGCUAUGGAUCUGGUGAAAAGCCAUUUGAUGUAUGCGGUGAGGGAGGAAGUG", "bound/input enrichment": "0.202 ratio"}
{"Strand": "CUGUGGGGACUUGACAGCAAUGCUCAUCUCUCAUGCUUCAAUUUUUCUUUUCUUACUGUUAACCGGAAAAAAAUCAACAUCUGUAAAUUAAGAAUACAGCAAUUAUCUGUACAGUACUGC", "bound/input enrichment": "0.161 ratio"}
{"Strand": "GAGUCAUGCAACGGUUCACACCAGGCAAGGGGGGAUCCACUCAGUGGAGCAUCUGACCGGAUGAAAGAAGCAUCAGUCAACCCAUCGGGAGCCCGAGAAGAACAAGAGGCUCACACUGAC", "bound/input enrichment": "0.0678 ratio"}
{"Strand": "CUAGUUUGUGUUUGUUUUUAAGAUUAAAUUAAUCCUUGAUAAAAGUUGCUUUUUUAGGGGUCCGUCUUUGACCACUAUAGUUUGAUGCCAUCUCCAUUUUGGUUGACCUGUCUCACCAUC", "bound/input enrichment": "11.5 ratio"}
{"Strand": "CAUGGAAAUAUUAUCUACAUCCACAUAAGAGAUAAAACCUGGGAUGUACAUGAAUAUUUGAACCGUCUUUUUGAAGAAUUAAAAUCUUGGAGAGAUGUUUAUUGGCGUUUGUGGGGCACA", "bound/input enrichment": "0.425 ratio"}
{"data": "Set 3", "target": "DDIT3, bZIP domain (human)", "method": "DHFR protein complementation", "matrix": "yeast", "setting": "single substitutions, most at no-binding floor", "reference": "wild-type JUN-FOS pair", "direction": "higher = stronger binding", "parent": "JUN, bZIP domain (human); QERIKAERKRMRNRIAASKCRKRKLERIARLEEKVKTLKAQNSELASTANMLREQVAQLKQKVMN; partner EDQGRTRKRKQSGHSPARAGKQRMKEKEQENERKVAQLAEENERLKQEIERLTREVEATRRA"}
{"Variant": "L31F", "binding fitness [natural log]": -0.452}
{"Variant": "Q41P", "binding fitness [natural log]": -1.5}
{"Variant": "S47R", "binding fitness [natural log]": 0.113}
{"Variant": "R30I", "binding fitness [natural log]": 0.00196}
{"Variant": "I28Q", "binding fitness [natural log]": -0.0181}
{"Variant": "L38Q", "binding fitness [natural log]": -1.29}
{"Variant": "Q41F", "binding fitness [natural log]": -1.42}
{"Variant": "K39M", "binding fitness [natural log]": 0.0169}
{"data": "Other studies, line by line", "parent": "PafA, mature enzyme, eGFP fusion (Elizabethkingia meningoseptica, UniProt Q9KJX5); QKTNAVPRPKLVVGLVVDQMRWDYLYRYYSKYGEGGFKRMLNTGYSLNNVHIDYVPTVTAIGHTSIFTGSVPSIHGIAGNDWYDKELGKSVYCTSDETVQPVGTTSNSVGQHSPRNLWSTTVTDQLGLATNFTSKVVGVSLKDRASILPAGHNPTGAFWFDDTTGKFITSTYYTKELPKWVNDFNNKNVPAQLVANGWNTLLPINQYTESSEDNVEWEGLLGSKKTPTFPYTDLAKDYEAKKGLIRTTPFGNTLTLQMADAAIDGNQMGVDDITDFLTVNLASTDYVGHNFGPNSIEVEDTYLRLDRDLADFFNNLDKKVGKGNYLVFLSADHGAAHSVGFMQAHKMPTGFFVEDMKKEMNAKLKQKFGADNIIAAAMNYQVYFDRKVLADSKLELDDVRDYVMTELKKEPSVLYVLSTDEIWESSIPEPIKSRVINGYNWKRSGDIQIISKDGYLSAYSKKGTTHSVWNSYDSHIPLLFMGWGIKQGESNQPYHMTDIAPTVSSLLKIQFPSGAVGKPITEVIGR"}
{"Variant": "K2G", "target": "vanadate, free oxyanion", "assay": "microfluidic competitive inhibition", "test system": "in vitro, cell-free expressed", "conditions": "not given, derived from inhibition constants, unchanged parent 676 nM", "how to read": "lower = stronger binding", "measurement": "oxyanion analog dissociation constant", "value": "703 nM"}
